Published values collected from several papers.
Protocols differ between the studies behind these lines.
EGFR G719S: Epidermal growth factor receptor (EGFR, Homo sapiens, UniProt P00533, G719S)
EGFR del746-750: Epidermal growth factor receptor (EGFR, Homo sapiens, UniProt P00533, del746-750)
EGFR L858R: Epidermal growth factor receptor (EGFR, Homo sapiens, UniProt P00533, L858R)
EGFR: Epidermal growth factor receptor (EGFR, Homo sapiens, UniProt P00533)
EGFR L858R/T790M: Epidermal growth factor receptor (EGFR, Homo sapiens, UniProt P00533, L858R/T790M)

The remaining activity of `CC(C)Oc1cc(N2CCN(C)CC2)ccc1Nc1nc(N)n(C(=O)NCc2ccccc2S(=O)(=O)C(C)C)n1` is reported as 5.4% (EGFR G719S; enzyme activity; 10 µM; baseline: control).
`COc1cc2ncnc(Nc3ccc(F)c(Cl)c3)c2cc1OCCCN1CCN(C(=O)CCOCCOCCOCCOCCOCCNc2ccc3c(c2)C(=O)N(C2CCC(=O)NC2=O)C3=O)CC1` (stereo not drawn): “time to significant reduction” ≤ 4 h (EGFR del746-750; protein degradation, degrader, western blot; HCC827; 100 nM).
For `C=CC(=O)N1CCC(C(=O)NCC(=O)N2CCN(c3nc(-c4cnc(N)nc4C(F)F)nc(N4CCOCC4)n3)CC2)CC1`, the remaining binding was 92% (EGFR (Homo sapiens, UniProt P00533, del752-759); KINOMEscan; 1 µM).
With `CCCOc1ccc(OC)c(F)c1C(=O)c1ccc(C(=O)N[C@@H]2CNC[C@H]2NC(=O)c2ccc3[nH]ncc3c2)cc1` the remaining activity was 77% (EGFR L858R; enzyme activity; 10 µM).
The inhibition of `COc1ccc(-c2nn(-c3ccc(S(C)(=O)=O)cc3)cc2C=N/N=c2\[nH]c(-c3ccc([N+](=O)[O-])cc3)cs2)cc1` is reported as 40.9% (EGFR; kinase activity, inhibitor; 0.1 µM).
The koff of `CC(C)C[C@H](NC(=O)[C@H](CO)NC(=O)[C@H](CO)NC(=O)CNC(=O)[C@@H]1CCCN1C(=O)[C@H](Cc1ccc(O)cc1)NC(=O)[C@H](CC(C)C)NC(=O)[C@H](CO)NC(=O)[C@H](CS)NC(=O)[C@H](CC(C)C)NC(=O)[C@@H](N)CC(C)C)C(=O)O` is reported as 0.00343 s⁻¹ (Epidermal growth factor receptor, extracellular domain (EGFR, Homo sapiens, UniProt P00533); binding, second site, surface plasmon resonance; immobilised soluble EGFR; model, binding, one to two).
With `CC(C)Cc1ccc(-c2nn(-c3ccc(S(C)(=O)=O)cc3)cc2/C=N/N=c2\[nH]c(-c3ccc([N+](=O)[O-])cc3)cs2)cc1` the inhibition was 20.8% (EGFR; kinase activity, inhibitor; 0.01 µM).
With `COc1cc(N2CCN(C)CC2)ccc1Nc1nc(N)n(C(=S)NCc2c(Cl)cccc2Cl)n1` the remaining activity was 4.2% (EGFR G719S; enzyme activity; 10 µM; baseline: control).
For `[2H]c1cc(C)c(NC(=O)c2cnc(Nc3cc(N4CCCCC4)nc(C)n3)s2)c(Cl)c1`, the inhibition was < 30% (EGFR L858R/T790M; 0.01 µM).
The remaining activity of `O=C(NC1CCC1)c1ccc2nc(-c3cccc(NS(=O)(=O)NCCN4CCCCC4)c3)cn2c1` is reported as 100% (EGFR; enzyme activity; 10 µM).
For `CC(C)C[C@H](NC(=O)[C@H](CO)NC(=O)[C@H](CO)NC(=O)CNC(=O)[C@@H]1CCCN1C(=O)[C@H](Cc1ccc(O)cc1)NC(=O)[C@H](CC(C)C)NC(=O)[C@H](CO)NC(=O)[C@H](CS)NC(=O)[C@H](CC(C)C)NC(=O)[C@H](CC(C)C)NC(=O)CCCCCNC(=S)Nc1ccc2c(c1)C(=O)OC21c2ccc(O)cc2Oc2cc(O)ccc21)C(=O)O`, the kon was 1360 M⁻¹ s⁻¹ (EGFR; binding, second site, LigandTracer cell binding; A-431; FITC-labelled, model, binding, one to two).
`COc1ccc(-c2nn(-c3ccc(S(C)(=O)=O)cc3)cc2/C=N/N=c2\[nH]c(-c3ccc(Br)cc3)cs2)cc1` gave an inhibition of 37.5% (EGFR; kinase activity, inhibitor; 0.01 µM).
`COc1cc(N2CCN(C)CC2)ccc1Nc1nc(N)n(C(=O)NCc2ccccc2S(=O)(=O)C(C)C)n1` gave a remaining activity of 22% (EGFR L858R/T790M; enzyme activity; 10 µM; baseline: control).
For `C=CC(=O)N1CCC(COCC(=O)N2CCN(c3nc(-c4cnc(N)nc4C(F)F)nc(N4CCOC[C@@H]4C)n3)CC2)CC1`, the remaining binding was 89% (EGFR L858R; KINOMEscan; 1 µM; baseline: DMSO control).
With `COc1cc(N2CCN(C)CC2)ccc1Nc1nc(N)n(C(=O)NCc2c(Cl)cccc2Cl)n1` the remaining activity was 3.4% (EGFR del746-750; enzyme activity; 10 µM; baseline: control).
The remaining binding of `C[C@@H](c1ccc(-n2cnc3c(N)ncnc32)cc1)N1CCc2nn(C)c(Cc3ccccc3)c2C1=O` is reported as 79% (EGFR; KINOMEscan; 0.1 µM; baseline: DMSO control).
The remaining activity of `CCOc1cc(N2CCN(C)CC2)ccc1Nc1nc(N)n(C(=O)NCc2ccccc2S(=O)(=O)C(C)C)n1` is reported as 34% (EGFR L858R/T790M; enzyme activity; 10 µM; baseline: control).
With `C#Cc1cc(-c2cc(Nc3nc(N[C@@H](C)c4ccc(F)cn4)ncc3Cl)n[nH]2)ccc1C=O` the inhibition was 10.4% (EGFR; enzyme activity, inhibitor; 0.2 µM).

Some of these lines once more:
The remaining activity of `O=C(NC1CCC1)c1ccc2nc(-c3cccc(NS(=O)(=O)NCCN4CCCCC4)c3)cn2c1` is reported as 100% (EGFR; enzyme activity; 10 µM).
For `CC(C)C[C@H](NC(=O)[C@H](CO)NC(=O)[C@H](CO)NC(=O)CNC(=O)[C@@H]1CCCN1C(=O)[C@H](Cc1ccc(O)cc1)NC(=O)[C@H](CC(C)C)NC(=O)[C@H](CO)NC(=O)[C@H](CS)NC(=O)[C@H](CC(C)C)NC(=O)[C@H](CC(C)C)NC(=O)CCCCCNC(=S)Nc1ccc2c(c1)C(=O)OC21c2ccc(O)cc2Oc2cc(O)ccc21)C(=O)O`, the kon was 1360 M⁻¹ s⁻¹ (EGFR; binding, second site, LigandTracer cell binding; A-431; FITC-labelled, model, binding, one to two).
